Measurements of several laboratories.
Each numbered part is a random draw from the data of one study; scales do not carry over between parts.

Series 1 — method: protein binding microarray; form: double-stranded DNA, one strand shown; matrix: in vitro; tested at: not given; relative to: not given; reading: higher = stronger binding; endpoint: E-score
Target: Histone acetyltransferase KAT6A, winged helix 1, GST fusion (KAT6A, Homo sapiens, UniProt Q92794, residues 1-85)
Setting: 8-mer, flanks averaged, mean of 2 arrays, mostly near background
Residues (chain): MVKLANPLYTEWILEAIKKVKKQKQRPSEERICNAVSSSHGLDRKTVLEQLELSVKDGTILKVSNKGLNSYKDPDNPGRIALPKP
GTAGCATA: 0.0539
AAGACCCG: 0.14
AGCCTCCT: -0.0933
AACCTGCG: 0.14
ATTGCCGG: 0.351
ACCGCCCA: 0.215
AACTTTGC: -0.0977
CAGGCCTG: -0.289
CCTGGGGC: -0.0597

Series 2 — method: RNA Bind-n-Seq; form: RNA; matrix: in vitro; tested at: 1 µM; setting: whole 134-nt RNA, ends assumed; with: 150 mM KCl; relative to: input library; reading: higher = stronger binding; endpoint: log2 enrichment
Target: Ras GTPase-activating protein-binding protein 1, C-terminal RGG region (G3BP1, Homo sapiens, UniProt Q13283)
Chain of UniProt Q13283 (whole entry, looked up): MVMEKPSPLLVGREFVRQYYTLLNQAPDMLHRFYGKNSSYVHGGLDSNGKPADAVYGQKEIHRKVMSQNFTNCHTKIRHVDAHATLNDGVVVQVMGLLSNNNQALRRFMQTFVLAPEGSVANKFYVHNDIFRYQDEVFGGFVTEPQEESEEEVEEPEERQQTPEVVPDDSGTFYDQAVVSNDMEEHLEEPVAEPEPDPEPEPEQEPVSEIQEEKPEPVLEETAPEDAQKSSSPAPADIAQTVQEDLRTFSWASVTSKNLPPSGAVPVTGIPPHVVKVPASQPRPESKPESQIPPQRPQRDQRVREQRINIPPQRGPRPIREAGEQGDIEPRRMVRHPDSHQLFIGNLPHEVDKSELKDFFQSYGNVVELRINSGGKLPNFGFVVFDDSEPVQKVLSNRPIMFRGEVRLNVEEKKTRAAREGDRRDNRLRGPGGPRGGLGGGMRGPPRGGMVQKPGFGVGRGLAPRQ
All sequences stand within: GGGAGUUCUACAGUCCGACGAUC … UGGAAUUCUCGGGUGUCAAGG
UUUCUAGGCAAGAGGAGGAACGACGUAGAAGAGAGGAAGAGAUGAUGAUUCGUCAACGUGAGAUGGAAGAACAAAUGAGGCGCCAAAGAG: -0.933
UAACUUUAGAGGAGGAUCUGAUGGAUAUGGCAGUGCACGUGGAUUUGGGGAUGGCUAUAAUGGGUAUGGAGGAGGACCUGGAGGUGGCAA: -1.2
GCAGGAAGUAAAAACAAAUGGAAAUGCUUCGGAUAGUGGCAGGGGUGGGGGUUGCUAAGGAAAGGGUGGGAUGGGAGUGGGUAAAAAGUU: 2.05
UGUGCUACACAUCGUAUGUACCGAAUCGGGGUUUUUUUGGGGAAAAAGGGGUUUUUUUGGGGAAAGUAUUAUGUUACGCCGUUCGGAUCU: 0.716
AGUCCUGUGCUACACAUCGUAUGUACCGAAUCGGAAAAGGGAAAAGGGGAAAAGGGGAAAGUAUUAUGUUACGCCGUUCGGAUCUGCACU: -0.711
CUGUGCUACACAUCGUAUGUACCGAAUCGGGGUUUUUUUGGGGAAAGGGGAAAAAAAGGGGAAAGUAUUAUGUUACGCCGUUCGGAUCUG: -0.601
UUCUCUGCCGGCUCAGAGGAGAGGAGACGCCGUGAGCGGGACGACCAGAUGUACCGAGAGCGGCUGCGCACCUUGCUGGUCAUCGCGGUU: -1.8
CUGUGCUACACAUCGUAUGUACCGAAUCGGGGAAAAAAAGGGGUUUUUGGGGAAAAAGGGGAAAGUAUUAUGUUACGCCGUUCGGAUCUG: 0.0482

Series 3 — method: protein-binding microarray; form: double-stranded DNA, one strand shown; matrix: in vitro; tested at: not given; reading: higher = stronger binding; endpoint: E-score
Target: Protein max, full length (MAX, Homo sapiens, UniProt P61244-2, residues 1-151)
Setting: k-mer, scored over probes, only values ≥0.25
CACATGTG: 0.481
CACCCACA: 0.253
CAGCATGC: 0.445
AAGCACAC: 0.285
ATGCGGCA: 0.322
CGTGCTAC: 0.408
CGGGGCAC: 0.281

Other studies, line by line
PhoQ, residues 284 288 289 292 302 303 TGYLSA
fold induction (PhoP, residues 12 14 15 18 19 NQAHL (Escherichia coli, UniProt P23836); Sort-seq, refers to: YFP reporter; E. coli; PhoQ-PhoP variant library, with: 10 µM Mg2+; relative to: high Mg2+ state, higher = stronger signaling): 14.7
